Assay results gathered from unrelated publications.
Compare with care: the assays were run in different laboratories. Values joined by “and” are separate records of one study, mostly repeats; a detail may differ. ± marks the error that the study gave.
B1: Cacna1c 1647-1777 (Mus musculus, UniProt Q01815); sequence looked up; chain NALSLQAGLRTLHDIGPEIRRAISGDLTAEEELDKAMKEAVSAASEDDIFRRAGGLFGNHVTYYQSDSRGNFPQTFATQRPLHINKTGNNQADTESPSHEKLVDSTFTPSSYSSTGSNANINNANNTALGR
B2: DNAJB11 23-358 (Homo sapiens, UniProt Q9UBS4); chain GRDFYKILGVPRSASIKDIKKAYRKLALQLHPDRNPDDPQAQEKFQDLGAAYEVLSDSEKRKQYDTYGEEGLKDGHQSSHGDIFSHFFGDFGFMFGGTPRQQDRNIPRGSDIIVDLEVTLEEVYAGNFVEVVRNKPVARQAPGKRKCNCRQEMRTTQLGPGRFQMTQEVVCDECPNVKLVNEERTLEVEIEPGVRDGMEYPFIGEGEPHVDGEPGDLRFRIKVVKHPIFERRGDDLYTNVTISLVESLVGFEMDITHLDGHKVHISRDKITRPGAKLWKKGEGLPNFDNNNIKGSLIITFDVDFPKEQLTEEAREGIKQLLKQGSVQKVYNGLQGY
B3: CKS1 (Saccharomyces cerevisiae, UniProt P20486); sequence looked up; chain MYHHYHAFQGRKLTDQERARVLEFQDSIHYSPRYSDDNYEYRHVMLPKAMLKVIPSDYFNSEVGTLRILTEDEWRGLGITQSLGWEHYECHAPEPHILLFKRPLNYEAELRAATAAAQQQQQQQQQQQQQQQQHQTQSISNDMQVPPQIS
B4: Mdm2 153-308 (Rattus norvegicus, UniProt A0A0G2JVC1); sequence looked up; chain PSTSSRRRAISETEENTDELPGERQRKRHRALSFDESLGLCVLREICCERSSSSEATDTPSHQDLDDGVSDHSADCLDQDSVSDQFSVEFEVESLDSEDYSLSDEGHELSDEDDEVYRVTVYQAGESDADSFEGDPEISLADYWKCTSCNEMNPPL
B5: PLXNA2 RBD 1490-1600 (Homo sapiens, UniProt O75051); sequence looked up; chain LIRQQIEYKTLILNCVNPDNENSPEIPVKVLNCDTITQVKEKILDAVYKNVPYSQRPRAVDMDLEWRQGRIARVVLQDEDITTKIEGDWKRLNTLMHYQVSDRSVVALVPK
UniProt P12004, sequence (whole entry, looked up): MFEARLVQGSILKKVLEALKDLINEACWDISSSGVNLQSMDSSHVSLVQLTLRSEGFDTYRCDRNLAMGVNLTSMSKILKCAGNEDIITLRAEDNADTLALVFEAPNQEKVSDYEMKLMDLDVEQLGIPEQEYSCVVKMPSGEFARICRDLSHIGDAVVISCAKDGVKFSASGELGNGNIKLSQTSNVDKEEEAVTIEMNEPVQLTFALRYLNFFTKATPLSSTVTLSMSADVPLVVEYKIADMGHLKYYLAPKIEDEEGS
UniProt P38634, sequence (whole entry, unmodified, looked up): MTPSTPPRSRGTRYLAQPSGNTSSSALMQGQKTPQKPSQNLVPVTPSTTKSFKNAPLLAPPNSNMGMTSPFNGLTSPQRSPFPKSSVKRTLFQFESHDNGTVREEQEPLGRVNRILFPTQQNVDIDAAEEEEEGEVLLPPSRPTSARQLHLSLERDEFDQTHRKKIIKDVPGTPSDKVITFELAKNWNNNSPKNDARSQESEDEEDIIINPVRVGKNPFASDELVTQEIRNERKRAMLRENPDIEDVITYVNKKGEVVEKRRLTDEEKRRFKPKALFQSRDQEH
UniProt P29067, sequence (whole entry, looked up): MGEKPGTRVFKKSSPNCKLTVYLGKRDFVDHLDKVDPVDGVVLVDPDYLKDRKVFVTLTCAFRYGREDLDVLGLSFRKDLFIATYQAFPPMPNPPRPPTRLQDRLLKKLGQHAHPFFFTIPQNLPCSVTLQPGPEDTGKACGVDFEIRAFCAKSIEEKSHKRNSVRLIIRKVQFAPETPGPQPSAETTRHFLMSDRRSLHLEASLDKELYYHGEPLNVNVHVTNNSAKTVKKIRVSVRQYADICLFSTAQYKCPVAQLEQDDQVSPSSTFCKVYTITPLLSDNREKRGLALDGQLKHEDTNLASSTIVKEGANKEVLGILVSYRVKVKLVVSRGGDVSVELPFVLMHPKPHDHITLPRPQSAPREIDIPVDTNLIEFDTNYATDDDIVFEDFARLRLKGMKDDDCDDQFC
UniProt Q14145, sequence (whole entry, looked up): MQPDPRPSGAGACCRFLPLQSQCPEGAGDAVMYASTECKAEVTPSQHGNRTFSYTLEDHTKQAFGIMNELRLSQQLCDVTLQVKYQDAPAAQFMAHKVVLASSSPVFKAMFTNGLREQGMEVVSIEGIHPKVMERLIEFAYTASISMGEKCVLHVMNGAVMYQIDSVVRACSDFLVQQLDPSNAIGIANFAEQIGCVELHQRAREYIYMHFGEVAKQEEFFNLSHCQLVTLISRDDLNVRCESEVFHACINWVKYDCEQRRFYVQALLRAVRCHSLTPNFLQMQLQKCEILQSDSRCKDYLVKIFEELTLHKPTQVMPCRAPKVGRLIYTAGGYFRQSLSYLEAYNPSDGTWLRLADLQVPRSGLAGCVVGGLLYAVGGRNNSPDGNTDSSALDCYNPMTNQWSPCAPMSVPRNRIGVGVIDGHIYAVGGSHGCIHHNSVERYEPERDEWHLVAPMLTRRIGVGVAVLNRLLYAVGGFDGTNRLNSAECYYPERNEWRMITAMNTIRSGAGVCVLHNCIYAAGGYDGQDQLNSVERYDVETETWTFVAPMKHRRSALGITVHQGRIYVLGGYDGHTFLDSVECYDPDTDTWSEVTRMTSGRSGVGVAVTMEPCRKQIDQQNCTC
UniProt Q92730, sequence (whole entry, looked up): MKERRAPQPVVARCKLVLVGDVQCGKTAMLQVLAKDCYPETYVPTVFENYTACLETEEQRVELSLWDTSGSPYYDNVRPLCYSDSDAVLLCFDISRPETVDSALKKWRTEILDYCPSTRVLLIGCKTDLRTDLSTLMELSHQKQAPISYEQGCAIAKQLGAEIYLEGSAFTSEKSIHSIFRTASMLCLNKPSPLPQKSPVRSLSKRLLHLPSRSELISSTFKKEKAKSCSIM

With `B1 (Cacna1c 1647-1777)` the Kd was 11700 nM (Jph2 1-440 S165L (Mus musculus, UniProt Q9ET78); ITC).
`B2 (DNAJB11 23-358)` has a Kd of 17800 ± 4600 nM (HSPA5 28-654 K294F (Homo sapiens, UniProt P11021); MST).
The binding intensity of `GSGAGKESYV` is reported as 0.647 (human MAGI1-3/6 PDZ construct (MBP fusion); automated holdup; peptide, purified PDZ protein; concentration not given, unit not given; reference: biotin control resin, higher = stronger binding).
With `B3 (CKS1)` the Kd was 21000 nM (SIC1 1-215 T2A/S69A/S76A/S80A, pT45 (Saccharomyces cerevisiae, UniProt P38634); ITC).
With `F9 heavy and light chains, activated (UniProt P00740)` the Kd was 1.4 nM (F8 activated, B-domain-deleted (Homo sapiens); FXa generation, factor Xa generation rate; with: FX).
For `SCN2A IQ region I1911V (Homo sapiens) (sequence not shown)`, the Kd was 160 nM (CALM1 (Homo sapiens, UniProt P0DP23); fluorescence titration; pH 7.4, 22 °C, with: calcium).
`KRRQKSMTDFYHSKR (CDKN1A residues 141-155 T145K; C-terminal amide)` gave a Kd of 98 nM (PCNA (Homo sapiens, UniProt P12004); SPR; peptide).
`B4 (Mdm2 153-308)` has a Kd of 20900 nM (Arrb2 (Rattus norvegicus, UniProt P29067); BLI).
`VMRLQSETSV` has a binding intensity of 0.106 (human MAGI1-3/6 PDZ construct (MBP fusion); automated holdup; peptide, purified PDZ protein; concentration not given, unit not given; reference: biotin control resin, higher = stronger binding).
`GRGRGRGRGRGRGRGRGRGRGRGRGRGRGRGRGRGRGRGR ((GR)20 20 repeats; TAMRA label N-terminal)` gave a Kd of 52.3 ± 13.9 nM (FUS 1-214 (Homo sapiens, UniProt P35637); fluorescence polarisation; peptide).
`B5 (PLXNA2 RBD 1490-1600)` has a Kd of 8610 ± 1980 nM (RND1 5-200 (Homo sapiens, UniProt Q92730); SPR).
With `INVRKRNVESGEEELASKLD (PGAM5 71-90; N-acetyl, C-terminal amide)` the Kd was 180 nM (KEAP1 321-609 (Homo sapiens, UniProt Q14145); ITC; peptide).
The Kd of `FIYWPWADLGVPDCG (macrocyclic peptide; cyclic)` is reported as 90 nM and 60 nM and 100 nM (NRAS fragment (Homo sapiens); SPR; peptide).
`PKLPPKTYKREH (SOS1 proline-rich peptide, 1303-1314)` has a Kd of 156000 nM (GRB2 156-215 (Homo sapiens, UniProt P62993); NMR titration; peptide).

Repeated from above:
With `INVRKRNVESGEEELASKLD (PGAM5 71-90; N-acetyl, C-terminal amide)` the Kd was 180 nM (KEAP1 321-609 (Homo sapiens, UniProt Q14145); ITC; peptide).
